Experimental data pooled from the literature.
Protocols differ between the studies behind these lines. “And” joins repeats or separate records; there may be more than shown. ± marks the error that the study gave.

`Cn1cc(-c2nc(N[C@@H]3CCCC[C@@H]3N)c(F)c3c2C(=O)NC3)cn1` — result for “hemorrhagic adverse events”: 13% (measured: Hemoptysis; patients with relapsed or refractory AML; oral, 60 mg twice daily).
`CN(C(=O)n1cnc(-c2ccc[n+]([O-])c2)c1)C1CCCCC1` has a concentration of 117 ± 36.9 ng/g (Wistar rat, midbrain; oral, 10 mg/kg, 4 h, single dose).
Under “treatment-related adverse events”, `CCCCCCCCCCCCCCCC(=O)N[C@@H](CCC(=O)NCCCC[C@H](NC(=O)[C@H](CC(=O)O)NC(=O)[C@H](CO)NC(=O)[C@@H](NC(=O)[C@H](Cc1ccccc1)NC(=O)[C@@H](NC(=O)CNC(=O)[C@H](CCC(N)=O)NC(=O)[C@H](CO)NC(=O)[C@@H](N)Cc1c[nH]cn1)[C@@H](C)O)[C@@H](C)O)C(=O)N[C@@H](CO)C(=O)N[C@@H](CCC(=O)O)C(=O)N[C@@H](Cc1ccc(O)cc1)C(=O)N[C@@H](CC(C)C)C(=O)N[C@@H](CC(=O)O)C(=O)N[C@@H](CO)C(=O)N[C@@H](CCC(=O)O)C(=O)N[C@@H](CCCNC(=N)N)C(=O)N[C@@H](C)C(=O)N[C@@H](CCCNC(=N)N)C(=O)N[C@@H](CC(=O)O)C(=O)N[C@@H](Cc1ccccc1)C(=O)N[C@H](C(=O)N[C@@H](C)C(=O)N[C@@H](Cc1c[nH]c2ccccc12)C(=O)N[C@@H](CC(C)C)C(=O)N[C@@H](CCC(=O)O)C(=O)N[C@@H](C)C(=O)NCC(=O)NCC(=O)O)C(C)C)C(=O)O` is recorded as 2.7% (measured: Dizziness; humans all renal groups; subcutaneous, 100 µg single dose).
`CCc1ccc(CC/C=C/c2ccc3c(c2)C(=O)CC3)cc1` gave an Eosinophil percentage of 0.77% (Sprague-Dawley rat, female; oral, 30 mg/kg/day, 14 days).
`C=CC(=O)Nc1cc(Nc2nccc(Nc3cc(Cl)c(F)cc3C(C)(C)O)n2)c(OC)cc1N1CC[C@@H](N(C)C)C1`: “patients with pneumonia” 0% (human patients; oral, 50 mg, treatment-emergent adverse events).
Under “fraction of dose excreted unchanged”, `N=C(N)NCCC[C@@H](NC(=O)[C@@H](N)Cc1ccccc1)C(=O)N[C@@H](Cc1ccccc1)C(=O)N[C@@H](CCCCN)C(N)=O` is recorded as 20.4% (LC-MS; human, urine; subcutaneous, 5 mg, 5.833 h, median).
`CN[C@H]1CC[C@@H](c2ccc(Cl)c(Cl)c2)c2ccccc21` has an AUC(0-inf) of 62.2 ng·h/mL (CD-1 mouse, male, plasma; intraperitoneal, 1 mg/kg).
`Nc1nc2cc(-c3ccc4ncc(C(=O)N5CCOCC5)n4c3)ccc2o1` — result for “patients with adverse event”: 8% (measured: Hyperglycemia; advanced solid tumour patients; dose not given).
Under “mean corpuscular haemoglobin concentration”, `O=S(=O)(Nc1ccccc1)c1ccc(NC(=S)Nc2ccccc2)cc1` is recorded as 32.5 g/dL (mouse, female, blood; oral, 80 mg/kg daily, 14 days).
For `O=C(O)CCC(CP(=O)(O)O)C(=O)O` (centres unmarked), the measured concentration was 3.99 ± 0.05 µg/mL (rat plasma; 4 µg/mL, freeze-thaw cycle 2 at -80 °C).
Under “subjects with pain in extremity”, `O=C(Nc1ccccc1)C1CCN(C(=O)Oc2cccnc2)CC1` is recorded as 0% (adverse event reporting; healthy women; oral, 100 mg, 9 days).
For `C[C@H](O)c1cnc(NS(=O)(=O)c2ccc(C(F)(F)F)c(Cl)c2)nc1`, “apparent intrinsic clearance” read < 1.9 µL/min/10⁶ cells (hepatocytes, HSD17B13 knockout with AAV control, C57BL/6J mouse, male; 1 µM).
With `Cn1nc(NS(C)(=O)=O)c2c(Cl)ccc(-n3c([C@H](Cc4cc(F)cc(F)c4)NC(=O)Cn4nc(C(F)F)c5c4C(F)(F)[C@@H]4C[C@H]54)nc4nc(OCCC(F)(F)F)ccc4c3=O)c21` the AUC(0-inf) reduction was 45% (human; oral, dose not given, single dose tablet; relative to: powder in bottle).
`COc1ncccc1-c1cnn2ccc(N3CCN(C(=O)OC(C)C)CC3)nc12` gave a concentration of 5.6 µM (rat, thoracic spinal cord; oral, 30 mg/kg, 1.5 h, together with: yohimbine pretreatment).
For `O=C1Nc2cc3[nH]nc(-c4ccncc4)c3cc2CN1Cc1ccccc1`, “patients with macular oedema” read 0% (CTCAE v4.03; advanced solid tumour patients; intravenous, 4.8 mg/kg).
Under “serum protein fraction”, `O=C(O)CCCOc1ccc(F)cc1-c1cc(-c2ccccc2C(F)(F)F)n(-c2ccccc2)n1` is recorded as 14.6 ± 0.7% (measured: β-glb; Crl:CD(SD) rats, female, serum; iv, 25 µg/kg, 1 day).
`COc1cc2c(Oc3ccc4[nH]c(C)cc4c3F)ccnc2cc1OCC1(N)CC1`: “grade 1 or 2 Hypertension” 25% (paediatric recurrent refractory sarcoma; 10 mg).
`COc1cccc(Oc2ccccc2NC(=O)CNC(=O)c2cccc3ccccc23)c1` gave a blood glucose of 192 mg/dL and 221 mg/dL and 194 mg/dL (esterase-deficient SCID mice, male; oral, 100 mg/kg/day, 14 days, toxicity study).
The oral bioavailability of `C[C@]12CC[C@H](n3ccnc3)CC1=CC[C@@H]1[C@@H]2CC[C@]2(C)C(n3cnc4ccccc43)=CC[C@@H]12.Cl` is reported as 131% (CD-1 mice, male, plasma; oral, 10 mg/kg; relative to: intravenous 1 mg/kg).
Under “grade ≥3 neutrophil decrease incidence”, `Cn1cncc1-c1c(F)cncc1NC(=O)c1c(N)nn2cc(F)cnc12` is recorded as 0% (human patients; oral, 180 mg once daily).
For `CC[C@H](C)[C@H](NC(=O)[C@H](Cc1ccccc1)NC(=O)[C@H](CCC(=O)O)NC(=O)[C@H](CCCCNC(=O)COCCOCCNC(=O)COCCOCCNC(=O)CC[C@H](NC(=O)CCCCCCCCCCCCCCCCC(=O)O)C(=O)O)NC(=O)[C@H](C)NC(=O)[C@H](C)NC(=O)[C@H](CCC(N)=O)NC(=O)CNC(=O)[C@H](CCC(=O)O)NC(=O)[C@H](CC(C)C)NC(=O)[C@H](Cc1ccc(O)cc1)NC(=O)[C@H](CO)NC(=O)[C@H](CO)NC(=O)[C@@H](NC(=O)[C@H](CC(=O)O)NC(=O)[C@H](CO)NC(=O)[C@@H](NC(=O)[C@H](Cc1ccccc1)NC(=O)[C@@H](NC(=O)CNC(=O)[C@H](CCC(=O)O)NC(=O)C(C)(C)NC(=O)[C@@H](N)Cc1cnc[nH]1)[C@@H](C)O)[C@@H](C)O)C(C)C)C(=O)N[C@@H](C)C(=O)N[C@@H](Cc1c[nH]c2ccccc12)C(=O)N[C@@H](CC(C)C)C(=O)N[C@H](C(=O)N[C@@H](CCCNC(=N)N)C(=O)NCC(=O)N[C@@H](CCCNC(=N)N)C(=O)NCC(=O)O)C(C)C`, “adverse event incidence” read 0% (measured: Deaths; type 2 diabetes patients; dose not given; relative to: subjects).
Under “enzyme contribution to clearance”, `Cc1c(COC(=O)[C@@H]2[C@H](/C=C(\Cl)C(F)(F)F)C2(C)C)cccc1-c1ccccc1` (racemic) is recorded as 9.07% (measured: CYP2C8; human, age 6 months, recombinant human CYP2C8; 0.1 µM).
With `CC(C)C[C@H](NC(=O)[C@H](CCCCN)NC(=O)OCC1c2ccccc2-c2ccccc21)C(=O)N[C@H](C(=O)N[C@@H](Cc1ccccc1)C(=O)N[C@@H](Cc1ccccc1)C(=O)N[C@@H](CCCCN)C(=O)NCC(=O)N[C@@H](Cc1ccccc1)C(=O)N[C@@H](C)C(=O)N[C@@H](Cc1c[nH]c2ccccc12)C(=O)N[C@@H](CC(N)=O)C(=O)N[C@H](C(=O)N[C@H]1CSSC[C@@H](C(=O)N[C@@H](Cc2c[nH]cn2)C(=O)N[C@@H](CCCNC(=N)N)C(=O)N[C@@H](CCCNC(=N)N)C(=O)N[C@@H](C)C(=O)N[C@@H](CC(N)=O)C(N)=O)NC(=O)[C@H](C(C)C)NC(=O)[C@H](CCCNC(=N)N)NC(=O)[C@H](C(C)C)NC(=O)CNC(=O)[C@H](CC(N)=O)NC(=O)[C@H](CCCNC(=N)N)NC(=O)[C@H](Cc2ccc(O)cc2)NC(=O)[C@H](C(C)C)NC1=O)C(C)C)C(C)C` the remaining peptide was 45% and 38.3% and 42.5% (HPLC; mouse liver homogenate; 2560 µM, 6.00 h, 50 mg/mL tissue).
Under “acute hepatic failure incidence”, `Cn1ncc(-c2nc(N[C@H]3CC[C@H](N)CC3)ncc2Cl)c1CC1CC1` is recorded as 3.2% (phase I dose escalation; human patients; dose not given, treatment-related grade 3 or higher).
For `CC[C@H](C)[C@@H]1NC(=O)[C@@H]2CSSC[C@H](NC(=O)[C@H](CCCNC(=N)N)NC(=O)[C@@H]3CSSC[C@H](NC1=O)C(=O)N[C@@H]([C@@H](C)O)C(=O)N[C@@H](CCCNC(=N)N)C(=O)NCC(=O)N[C@@H](Cc1ccccc1)C(=O)N3)C(=O)N[C@@H](CC(C)C)C(=O)N[C@H]1CSSC[C@H](NC(=O)[C@H](C(C)C)NC(=O)CNC(=O)[C@H](CCCNC(=N)N)NC(=O)[C@H](CCCNC(=N)N)NC1=O)C(=O)N[C@@H](CCCNC(=N)N)C(=O)N2`, “lung thrombosis score” read 1 to 2 (cynomolgus monkey, female, lung; 5 mg/kg, histopathology, multifocal; direction not given).
`CC(C)(O)c1cc(Nc2cc(Oc3cn(C4CC4)nc3C3CCOCC3)ccn2)ccn1` — result for “treatment-emergent adverse events”: 10% (Diarrhea; advanced cancer patients, grade 4 glioma expansion; oral, 50 mg twice daily, all causality any grade).
`C[C@]1(CO)Cc2ncn(-c3ccc(C#N)c(Cl)c3)c2C(=O)O1` — result for “subjects with drug-related dizziness”: 0% (human; 3 mg multiple doses, fasted).
For `NCCCC[C@@H]1NC(=O)[C@@H](Cc2c[nH]c3ccccc23)NC(=O)[C@H](c2ccccc2)NC(=O)[C@@H]2C[C@@H](OC(=O)NCCN)CN2C(=O)[C@H](Cc2ccccc2)NC(=O)[C@H](Cc2ccc(OCc3ccccc3)cc2)NC1=O`, “subjects with decreased appetite” read 11% (healthy human volunteers; 1950 µg twice daily).
With `CC(C)[C@H](O)C(=O)N[C@H]1Cc2ccc3c(c2)[C@]2(C4=C(c5nc(CO)co5)N=C(O4)[C@H](C(C)(C)C)NC1=O)c1cc(F)ccc1N[C@@H]2O3` the AUC(0-t) was 2890 ng·h/mL (NSG mice, lung; intravenous, 10 mg/kg, single dose at MTD, together with: paclitaxel 40 mg/kg).
`C=CCNc1c(O)cc2c(O)c1C[C@@H](C)C[C@H](OC)[C@H](O)[C@@H](C)/C=C(\C)[C@H](OC(N)=O)[C@@H](OC)/C=C\C=C(/C)C(=O)N2`: “patients with constipation TEAE” 33% (unresectable or metastatic STS, GIST, other; intravenous, 150 mg/m^2).
Under “deaths due to TEAEs”, `CO[C@H]1C[C@@H]2CC[C@@H](C)[C@@](O)(O2)C(=O)C(=O)N2CCCC[C@H]2C(=O)O[C@H]([C@H](C)C[C@@H]2CC[C@@H](OC(=O)NCCOCCOCCOCCOCCOCCOCCOCCOCCC(=O)N3CCc4cc(Cn5nc(-c6ccc7oc(N)nc7c6)c6c(N)ncnc65)ccc4C3)[C@H](OC)C2)C[C@@H](O)[C@H](C)/C=C(\C)[C@@H](O)[C@@H](OC)C(=O)[C@H](C)C[C@H](C)/C=C/C=C/C=C/1C` is recorded as 0% (phase 1 dose escalation; advanced solid tumour patients; intravenous, 6 mg weekly, grade ≥3).
For `CN1CCN(S(=O)(=O)c2cc([N+](=O)[O-])ccc2N(CCOS(C)(=O)=O)CCOS(C)(=O)=O)CC1`, the AUC(0-t) was 0.49 µM·h (naive female NSG mice, plasma; intraperitoneal, 5 mg/kg).
For `C[C@@H](NC(=O)N1C(=O)[C@H](Cc2ccnc(N)c2)[C@H]1C(=O)O)C1CCCCC1`, “incidence of decreased hemoglobin” read 12.5% (healthy adult Chinese volunteers; continuous intravenous infusion, 0.6 mg/kg/h, 5-day infusion, CTCAE 5.0 grading).
`CCCCCCCCCCCCOS(=O)(=O)[O-].[Na+]`: ATP level “decreased” (bovine liver slices; 50 µg/mL, 6 h; relative to: control).
For `NC(=O)[C@H]1CCN(c2ncnc(N)c2F)C[C@@H]1N1CCC[C@@H](Nc2cc(Cl)cc(C(F)(F)F)c2)C1=O`, “grade ≥3 neutropenia” read 0% (B-cell malignancy patients; oral, 410 mg twice daily, dose).
